Experimental data gathered from unrelated publications.
Each numbered part is a random draw from the data of one study; scales do not carry over between parts. Values joined by “and” are separate records of one study, mostly repeats; a detail may differ.

Set 1
Cell line: HEK-293T
Observed: pseudovirus infection
Technique: FDA-approved drug library counter-screen
Organism: VSV pseudotyped with VSV-G
Concentration: 10 µM
Time: 16 h
Baseline: vehicle-treated
| Structure (SMILES) | GFP-positive cells [%] |
| --- | --- |
| CC(C)(Oc1ccc(C(=O)c2ccc(Cl)cc2)cc1)C(=O)O | 87.8 |
| COC1=CC(=O)C[C@@H](C)[C@]12Oc1c(Cl)c(OC)cc(OC)c1C2=O | 81.2 |
| Cc1nc2n(c(=O)c1CCN1CCC(c3noc4cc(F)ccc34)CC1)CCCC2O (stereo not shown) | 123 |
| COCCCOc1cc(C[C@@H](C[C@H](N)[C@@H](O)C[C@H](C(=O)NCC(C)(C)C(N)=O)C(C)C)C(C)C)ccc1OC | 83.3 |
| CCCCOc1ccc(OCCCN2CCOCC2)cc1 | 109 |
| CCCN1CCCC[C@H]1C(=O)Nc1c(C)cccc1C | 108 |
| Nc1nc(Cl)nc2c1ncn2[C@@H]1O[C@H](CO)[C@@H](O)[C@@H]1F | 92.4 |
| C[C@H]1O[C@H](O[C@H]2[C@H](O)[C@@H](O)[C@@H](O[C@H]3[C@H](O)[C@@H](O)C(O)O[C@@H]3CO)O[C@@H]2CO)[C@H](O)[C@@H](O)[C@@H]1N[C@H]1C=C(CO)[C@@H](O)[C@H](O)[C@H]1O (stereo partly shown) | 116 |

Set 2
Structure (SMILES): CN1CC[C@]23c4c5ccc(O)c4O[C@H]2[C@@H](O)C=C[C@H]3[C@H]1C5
Host: mouse C57BL/6J male
Baseline: vehicle
| conditions | respiration rate [%] |
| --- | --- |
| 30 mg/kg, 0 min | 100 |
| 30 mg/kg, 100 min | 84 |
| 10 mg/kg, 80 min | 125 |
| 30 mg/kg, 60 min | 44 |
| 10 mg/kg, 0 min | 100 |
| 10 mg/kg, 20 min | 66 |

Set 3
Cell line: mouse MPNST tumor cells
Technique: high-content nuclear imaging
Refers to: cell number
Concentration: 10 µM
Time: 12 h
Setting: mean of 2 replicates
Baseline: plate mean
Reading: higher = more cells
| SMILES | nuclei count |
| --- | --- |
| Cc1cc2c(cc1-c1cc(/C=C/C(=O)O)ccc1O)C(C)(C)CCC2(C)C | 0.397 z-score |
| CN1C2C=C(c3sccc3Br)CC1CC2 (stereo not shown) | 1.1 z-score |
| COc1cc(Br)c(OC)c2c1C(CN)C2 (stereo not shown) | 1.99 z-score |
| O=C1CCCN1CC#CCN1CCCC1 | 0.633 z-score |
| COc1ccc2c(c1)/C(=C/c1cnc[nH]1)C(=O)N2 | -1.36 z-score |
| Cc1cc2c(C(C)C)c(O)c(O)c(C=O)c2c(O)c1-c1c(C)cc2c(C(C)C)c(O)c(O)c(C=O)c2c1O | -0.485 z-score |
| CC[C@H]1CN2CC[C@H]1C[C@@H]2[C@@H](O)c1ccnc2ccc(OC)cc12 | 4.03 z-score |

Single results of other studies
| SMILES | cell line | assay | conditions | quantity | value |
| --- | --- | --- | --- | --- | --- |
| CCOc1ccc(Nc2c3c(nc4ccccc24)CCC3)cc1 | HepG2 | resazurin | 1.66 µM, 48 h | cytotoxicity | 3% and 4% |
